Experimental data pooled from the literature.
Protocols differ between the studies behind these lines. Values joined by “and” are separate records of one study, mostly repeats; a detail may differ. ± gives the spread as reported.

| SMILES | target or system | assay | test system | conditions | how to read | quantity | result |
| --- | --- | --- | --- | --- | --- | --- | --- |
| CN1Cc2cc(Cl)ccc2-n2c(nnc2C2CCN(c3cccc([18F])n3)CC2)C1 | – | PET two-tissue compartment model | rhesus monkey, striatum | intravenous, dose not given, 60 min scan, baseline scan | – | total volume of distribution | 1.05 ± 0.29 mL/cm3 |
| NC1CCN(C(=O)Oc2ccc(C3CCCC4(C3)OOC3(O4)C4CC5CC(C4)CC3C5)cc2)CC1 (racemic) | – | – | male mouse, plasma | intravenous, 10 mg/kg | – | half-life | 3.42 h |
| Cc1ccc(N2CCN(C)[C@H](C)C2)cc1C(=O)N[C@H](C)c1cc(-c2cnn(C)c2)nc2ccccc12 | Vero E6 | – | – | 250 µM | – | viability | 0.471% and 1.26% |
| CC(C)C[C@H](NC(=O)[C@H](CCCNC(=N)N)NC(=O)[C@H](Cc1ccccc1)NC(=O)[C@H](Cc1ccccc1)NC(=O)[C@@H](N)[C@@H](C)O)C(=O)N[C@@H](Cc1ccccc1)C(=O)N[C@@H](CC(N)=O)C(=O)N[C@@H](CCCNC(=N)N)C(=O)N[C@@H](C)C(=O)N[C@@H](CCCCN)C(=O)N[C@@H](CCCNC(=N)N)C(=O)N[C@@H](Cc1c[nH]cn1)C(=O)N[C@@H](Cc1c[nH]cn1)C(=O)NCC(=O)N[C@@H](Cc1ccc(O)cc1)C(=O)N[C@@H](CCCCN)C(=O)N[C@@H](CCCNC(=N)N)C(=O)N[C@@H](CCCCN)C(=O)N[C@@H](Cc1ccccc1)C(=O)N[C@@H](Cc1c[nH]cn1)C(=O)O | – | HPLC-UV | human saliva | 0.5 h, 37 °C, with: initial 1 mg/mL | – | peptide concentration | 0.953 mg/mL |
| CC[C@H](C)[C@@H]1NC(=O)[C@H](Cc2ccc(O)cc2)NC(=O)CCCSC[C@@H](C(=O)N(CC(=O)N[C@@H](CC(C)C)C(=O)NCC(N)=O)Cc2ccc(F)cc2)NC(=O)[C@H](CC(N)=O)NC(=O)[C@H](CCC(N)=O)NC1=O | – | – | human | intranasal, 50 µg single dose | – | deaths | 0% |
| CC(C)(C)C(=O)OCOP(=O)(OCOC(=O)C(C)(C)C)C1CCCN(O)C1=O (stereo not drawn) | SW-620 | – | – | – | – | GI50 | 493 nM |
| CC(=O)NCCCC[C@@H]1NC(=O)[C@H](Cc2c[nH]c3c(C)cccc23)NC(=O)[C@H]([C@@H](C)O)NC(=O)[C@H](CC(N)=O)NC(=O)[C@@H](NC(C)=O)C(C)(C)SSC(C)(C)[C@@H](C(=O)N[C@@H](Cc2ccc(OCCN)cc2)C(=O)N[C@@H](Cc2ccc3ccccc3c2)C(=O)NC2(C(=O)N[C@@H](CCC(=O)O)C(=O)N[C@@H](CC(N)=O)C(=O)N[C@@H](Cc3cccnc3)C(=O)N(C)CC(N)=O)CCOCC2)NC1=O | – | – | human | oral, 100 mg multiple doses, day 10 | – | apparent clearance CL/F | 6320 ± 2500 L/h |
| CC(C)C[C@H](NC(=O)[C@H](Cc1ccc(O)cc1)NC(=O)[C@H](Cc1c[nH]cn1)NC(=O)[C@H](CCCCN)NC(=O)[C@H](CC(C)C)NC(=O)[C@H](C)NC(=O)[C@H](CC(C)C)NC(=O)[C@H](CCCCN)NC(=O)CNC(=O)[C@@H](NC(=O)[C@@H](NC(=O)[C@H](CCCCN)NC(=O)[C@@H](NC(=O)[C@H](CCC(=O)O)NC(=O)[C@H](C)NC(=O)[C@H](CCCCN)NC(=O)[C@H](CCCCN)NC(=O)[C@H](CC(C)C)NC(=O)[C@H](CC(C)C)NC(=O)[C@@H](NC(=O)[C@H](CCCNC(=N)N)NC(=O)[C@H](Cc1c[nH]c2ccccc12)NC(=O)CN)[C@@H](C)O)C(C)C)[C@@H](C)O)C(C)C)C(N)=O | – | – | zebrafish embryos 4 hpf, E3 medium | 1 h | – | acute toxic concentration | 25 µM |
| O=C(O)/C=C\c1ccc2occc2c1O[C@@H]1O[C@H](CO)[C@@H](O)[C@H](O)[C@H]1O | – | post-procedure stability | rat plasma | 200 ng/mL, 1 h, room temperature | – | accuracy | 81.2% |
| CC[C@H](C)[C@H](NC(=O)[C@H](CCCCN)NC(=O)CNC(=O)[C@H](CC(C)C)NC(=O)[C@H](Cc1ccccc1)NC(=O)[C@H](CCCCN)NC(=O)[C@H](CO)NC(=O)[C@H](Cc1ccccc1)NC(=O)[C@H](Cc1c[nH]c2ccccc12)NC(=O)[C@H](CCC(N)=O)NC(=O)[C@@H](NC(=O)[C@H](Cc1ccccc1)NC(=O)CCCCCNC(=O)CN1CCN(CC(=O)O)CCN(CC(=O)O)CCN(CC(=O)O)CC1)C(C)C)C(=O)N[C@@H](CCC(=O)O)C(=O)N1CCC[C@H]1C(=O)N[C@@H](CC(=O)O)C(=O)N[C@H](C(=O)N[C@@H](CO)C(=O)N[C@@H](CCC(N)=O)C(=O)N[C@H](C(=O)N[C@@H](CCC(N)=O)C(=O)N[C@@H](CC(=O)O)C(=O)N1CCC[C@H]1C(=O)N[C@@H](CC(N)=O)C(=O)N[C@@H](CC(=O)O)C(=O)N[C@@H](CCC(N)=O)C(=O)N[C@@H](Cc1ccc(O)cc1)C(=O)N[C@@H](CCC(=O)O)C(=O)N1CCC[C@H]1C(=O)N[C@@H](Cc1ccccc1)C(=O)O)C(C)C)C(C)C [copper-64 labelled] | – | – | C57BL/6 mice, lung | vehicle, intratracheal instillation | – | tissue uptake | 3.64 ± 0.2 %ID/g |
| Cc1ccc(N2CC3CCC(C2)N3C)cc1C(=O)N[C@H](C)c1cc(-c2cnn(C)c2)nc2ccccc12 | African green monkey cells | – | – | 15.62 µM | – | viability | 91.2% |
| CC(C)[C@H](NC(=O)[C@@H](NC(=O)[C@H](CCCNC(=N)N)NC(=O)[C@H](CCCNC(=N)N)NC(=O)[C@H](CCCNC(=N)N)NC(=O)[C@H](CCC(N)=O)NC(=O)[C@H](CCCNC(=N)N)NC(=O)[C@H](CCCNC(=N)N)NC(=O)[C@H](CCCCN)NC(=O)[C@H](CCCCN)NC(=O)[C@H](CCCNC(=N)N)NC(=O)CN)[C@@H](C)O)C(=O)N[C@H](C(=O)N[C@@H](CO)C(=O)N1CCC[C@H]1C(=O)O)[C@@H](C)O | – | – | ICR mouse, female, left kidney | intranasal, 5 mg/kg daily, 4 weeks | – | kidney weight | 0.218 ± 0.02 g |
| CC[C@H](C)[C@H](NC(=O)[C@H](CCCN)NC(=O)[C@H](CCCNC(=N)N)NC(=O)[C@@H]1CCCN1C(=O)[C@@H]1CCCN1C(=O)[C@H](CCCNC(=N)N)NC(=O)[C@@H]1CCCN1C(=O)[C@H](CCCNC(=N)N)NC(=O)[C@@H]1CCCN1C(=O)[C@H](CC(C)C)NC(=O)[C@H](Cc1ccc(O)cc1)NC(=O)[C@@H]1CCCN1C(=O)[C@@H]1CCCN1C(=O)[C@H](CCCCN)NC(=O)[C@H](CC(=O)O)NC(=O)[C@@H](N)C(C)C)C(=O)N[C@@H](Cc1ccc(O)cc1)C(=O)N[C@@H](CC(N)=O)C(=O)N[C@@H](CCCN)C(N)=O | – | cELISA, total compound | CD-1 mice, female, plasma | subcutaneous, 4.34 µmol/kg, single dose | – | elimination half-life | 0.717 h |
| CSCC[C@H](N)C(=O)N[C@@H](C)C(=O)N[C@@H](Cc1c[nH]c2ccccc12)C(=O)N[C@@H](Cc1c[nH]cn1)C(=O)N[C@@H](CC(=O)O)C(=O)N[C@@H](CC(=O)O)C(=O)N[C@@H](CCC(=O)O)C(=O)N[C@@H](CCC(=O)O)C(=O)N[C@@H](Cc1ccccc1)C(=O)N[C@@H](C)C(=O)N[C@@H](CCCNC(=N)N)C(=O)N[C@@H](CCCNC(=N)N)C(=O)N[C@@H](CCCNC(=N)N)C(=O)N[C@@H](CCCNC(=N)N)C(=O)NCCCCCC(=O)NCCCCC(NC(=O)CCCCCNC(=O)[C@H](CCCNC(=N)N)NC(=O)[C@H](CCCNC(=N)N)NC(=O)[C@H](CCCNC(=N)N)NC(=O)[C@H](CCCNC(=N)N)NC(=O)[C@H](C)NC(=O)[C@H](Cc1ccccc1)NC(=O)[C@H](CCC(=O)O)NC(=O)[C@H](CCC(=O)O)NC(=O)[C@H](CC(=O)O)NC(=O)[C@H](CC(=O)O)NC(=O)[C@H](Cc1c[nH]cn1)NC(=O)[C@H](Cc1c[nH]c2ccccc12)NC(=O)[C@H](C)NC(=O)[C@@H](N)CCSC)C(=O)NCCCCC(NC(=O)C(CCCCNC(=O)CCCCCNC(=O)[C@H](CCCNC(=N)N)NC(=O)[C@H](CCCNC(=N)N)NC(=O)[C@H](CCCNC(=N)N)NC(=O)[C@H](CCCNC(=N)N)NC(=O)[C@H](C)NC(=O)[C@H](Cc1ccccc1)NC(=O)[C@H](CCC(=O)O)NC(=O)[C@H](CCC(=O)O)NC(=O)[C@H](CC(=O)O)NC(=O)[C@H](CC(=O)O)NC(=O)[C@H](Cc1c[nH]cn1)NC(=O)[C@H](Cc1c[nH]c2ccccc12)NC(=O)[C@H](C)NC(=O)[C@@H](N)CCSC)NC(=O)CCCCCNC(=O)[C@H](CCCNC(=N)N)NC(=O)[C@H](CCCNC(=N)N)NC(=O)[C@H](CCCNC(=N)N)NC(=O)[C@H](CCCNC(=N)N)NC(=O)[C@H](C)NC(=O)[C@H](Cc1ccccc1)NC(=O)[C@H](CCC(=O)O)NC(=O)[C@H](CCC(=O)O)NC(=O)[C@H](CC(=O)O)NC(=O)[C@H](CC(=O)O)NC(=O)[C@H](Cc1c[nH]cn1)NC(=O)[C@H](Cc1c[nH]c2ccccc12)NC(=O)[C@H](C)NC(=O)[C@@H](N)CCSC)C(N)=O (stereo partly drawn) | – | – | C57BL/6 mouse female, skull | dose not given, 3 h | reference: total | mean tissue distribution | 17% |
| COCC1CN(C2CCN(c3cc(OC)c(Nc4ncc(Br)c(Nc5ccc6c(c5P(C)(C)=O)OCCO6)n4)cc3C)CC2)C1 | – | – | EGFR-mutant NSCLC patients | oral, 30 mg once daily | – | treatment-related AEs leading to death | 0% |
| N#[11C]c1ccc(-c2csc(NN=C3CCCC3)n2)cc1 | – | – | C57BL/6 mice, male, bone | intravenous, 3 MBq, 1 min | – | radioactivity uptake | 1.56 ± 0.39 %ID/g |
| C[C@H](O)[C@@H](NC(=O)[C@H]1CCCN1C(=O)[C@@H](CCCCN)NC(=O)[C@@H](CO)NC(=O)[C@@H](Cc1ccc(O)cc1)NC(=O)[C@@H](CC(N)=O)NC(=O)CCOCCOCCOCCNC(=O)CN1CCN(CC(=O)O)CCN(CC(=O)O)CCN(CC(=O)O)CC1)C(=O)N[C@H](CC(=O)O)C(=O)N[C@H](CCCNC(=N)N)C(=O)N[C@H](CCC(N)=O)C(=O)N[C@H](Cc1ccc(O)cc1)C(=O)N[C@H](Cc1c[nH]cn1)C(=O)N[C@H](Cc1ccccc1)C(N)=O [gallium-68 labelled] | – | – | BALB/c nude mice U-87 MG tumour, heart | intravenous, 1.85 MBq, 0.5 h, radiolabelled | – | tissue uptake | 0.52 ± 0.33 %ID/g |
| O=C1NC2(CC2)COc2ncc(F)cc2[C@H]2COCCN2c2ccn3ncc1c3n2 | – | – | Sprague-Dawley rat, male, serum | oral, 10 mg/kg/day, 4 weeks daily, end of treatment | – | pancreatic amylase activity | 1870 ± 499 U/L |
